Experimental data pooled from the literature.
Protocols differ between the studies behind these lines. ± marks the error that the study gave.
Cell line: HeLa

Compound = Cc1cc(C=O)cc(C)c1Oc1cc(Nc2ccc(C#N)cn2)nc2cnccc12; setting = 48 h; IC50 = > 126 µM
Compound = CC1=CC(c2ccccc2)=[O+][Pt-2]([NH3+])([NH3+])[O]1.O=[N+]([O-])[O-] (stereo not drawn); test = cell growth or viability, MTT; IC50 = 24 µM
Compound = COc1ccc(C(C)(O)C(C)(C)C(=O)O)cc1 (stereo not drawn); test = cell growth or viability; IC50 = 126 µM
Compound = CO[C@@H]1[C@@H](O[C@@H]2O[C@H](C)[C@@H](O[C@H]3C[C@@](C)(O)[C@@H](OC(=O)Nc4ccc(C(F)(F)F)cc4)[C@H](C)O3)[C@H](N(C)C)[C@H]2O)[C@@H](CC=O)C[C@@H](C)[C@@H](O[C@H]2CC[C@H](N(C)C)[C@@H](C)O2)/C=C/C=C/C[C@@H](C)OC(=O)C[C@H]1O; test = cell growth or viability, CCK-8; setting = 72 h; IC50 = 2.29 µM
Compound = CC(C)C[C@H](NC(=O)CNC(=O)c1cc(Cl)ccc1Cl)B(O)O; test = cell growth or viability, resazurin; setting = 48 h; IC50 = 0.81 µM
Compound = CCCCC[P+](c1ccccc1)(c1ccccc1)c1ccccc1; test = cell growth or viability, resazurin; setting = 72 h; IC50 = 1.64 µM
Compound = C[C@@H]1CC[C@@H]([C@@](O)(CNCc2ccccc2F)COCc2ccccc2)[C@H](OCc2ccccc2)C1; test = cell growth or viability, MTT; setting = 72 h; IC50 = 2.6 µM
Compound = CNC(=O)c1c(C)oc2cc(Oc3ncnc4cc(OC)c(OCCCCCCC(=O)NO)cc34)ccc12; test = cell growth or viability, CCK-8; setting = 48 h; IC50 = 1.49 µM
Compound = [Cl][Pt-]1([Cl])[S]C(Nc2ccccc2)=N[N+]1=Cc1ccc(-c2ccccc2)s1; test = cell growth or viability; IC50 = 105 µM
Compound = O=C(Cn1ccc(-c2ccc(OCCN3CCOCC3)cc2)cc1=O)NCc1ccccc1; test = cell growth or viability, CCK-8; setting = 48 h; IC50 = 0.24 µM
Compound = C[C@]12CC/C(=N\OCCN3CCCC3)C=C1CCC1C2CC[C@]2(C)/C(=C/c3ccccn3)CCC12 (stereo partly drawn); test = cell growth or viability, MTT; setting = 72 h; IC50 = 22.6 µM
Compound = C=C1C(=O)O[C@@H]2/C=C(\C)CC/C=C(/C(=O)OC)[C@H](OC(C)=O)[C@@H](OC(=O)/C(C)=C\C)[C@@H]12; test = cell growth or viability; setting = 24 h; IC50 = 9.38 µM
Compound = Nc1ncnc2c1ncn2CC(=O)N[C@@H](Cc1ccccc1)C(=O)N[C@@H](Cc1ccccc1)C(=O)N[C@@H](Cc1ccc(O)cc1)C(=O)O; IC50 = > 500 µM
Compound = CCc1ccc([C@H](C)CC(=O)N[C@@H]2O[C@H](CO)[C@@H](O)[C@H](O)[C@H]2O)cc1; test = cell growth or viability; setting = 96 h; IC50 = > 250 µM
Compound = Clc1ccc(C=[N+]2N=C(Nc3ccccc3)[S][Pt-]2([Cl])[Cl])s1; test = cell growth or viability; IC50 = 37 µM
Compound = O=S([O-])c1ccccc1N=Cc1ccccc1[O-].[Cu+2].c1c[nH]cn1; test = cell viability, MTT; setting = 24 h; IC50 = 1.86 ± 0.05 µM
Compound = CCCCCCOc1c(O)cc(C(=O)O[C@@H]2Cc3c(O)cc(O)cc3O[C@@H]2c2cc(O)c(O)c(O)c2)cc1O; test = cell growth or viability, CCK-8; setting = 24 h; IC50 = 115 µM
Compound = S=c1n(-c2ccccc2)c2c3ccccc3nc3[n+]2[n]1[Ir-3]12([S]3)([c]3ccccc3-c3cccc[n+]31)[c]1ccccc1-c1cccc[n+]12; test = cell viability, MTT; setting = irradiation 450 nm, 15.5 mW/cm^2, 15 min; IC50 = 0.015 ± 0.002 µM
Compound = COc1cc(C2Oc3ccc(C=C4Oc5cc(O)ccc5C4=O)cc3OC2CO)cc(OC)c1O (stereo not drawn); test = cell growth or viability, MTT; setting = 72 h; IC50 = 54.7 µM
Compound = CN[C@H](CC(C)C)C(=O)N[C@H]1C(=O)N[C@@H](CC(N)=O)C(=O)N[C@H]2C(=O)N[C@H]3C(=O)N[C@H](C(=O)N[C@H](C(=O)O)c4cc(O)cc(O)c4-c4cc3ccc4O)[C@H](O)c3ccc(c(Cl)c3)Oc3cc2cc(c3O[C@@H]2O[C@H](CO)[C@@H](O)[C@H](O)[C@H]2O[C@H]2C[C@](C)(N)[C@H](O)[C@H](C)O2)Oc2ccc(cc2Cl)[C@H]1O; test = cell viability, MTT; setting = 12 h; IC50 = > 500 µM
Compound = COC(=O)[C@]12CS[C@H](c3ccccc3)N1C(=O)/C(=C(\O)CCc1ccccc1)C2=O; test = cell growth or viability, resazurin; IC50 = 31.3 µg/mL
Compound = CCn1cc(/C=C/c2ccc3ccccc3[n+]2CC)c2ccccc21; test = cell growth or viability, MTT; setting = 24 h; IC50 = 6.12 µM
Compound = Fc1cccc(CNc2nc(NCc3ccccc3)c3ccccc3n2)c1; test = ODD-Luc degradation; setting = p97-independent substrate; IC50 = 11 ± 3 µM
Compound = COc1ccc(CNC(=O)Cc2ccc(-c3ccc(OCCN4CCOCC4)cc3)cn2)cc1; test = cell growth or viability, CCK-8; setting = 48 h; IC50 = 2 µM
Compound = CC(=O)OC[C@H]1O[C@@H](NC(=O)NC(=O)/C=C/c2ccc(C(C)C)cc2)[C@H](OC(C)=O)[C@@H](OC(C)=O)[C@@H]1OC(C)=O; test = cell growth or viability; setting = 96 h; IC50 = 44 µM
Compound = O=C(Cc1ccc(-c2ccc(OCCN3CCOCC3)cc2)cn1)NCc1ccc(F)cc1; test = cell growth or viability, CCK-8; setting = 48 h; IC50 = 0.04 µM
Compound = Clc1ccc(C=[N+]2N=C(Nc3ccccc3)[S][Pd-]2([Cl])[Cl])s1; test = cell growth or viability; IC50 = 180 µM
Compound = Cc1ccc(C(C)C)cc1.Cl.[Cl][Ru+].[Ru+].c1ccc(-c2cn(CCCCOc3ccccc3-c3nc4ccccc4s3)nn2)nc1; test = cytotoxicity, MTT; setting = 48 h; IC50 = 7.68 ± 1.2 µM
Compound = C[C@]12CC/C(=N\OCCN3CCCCC3)C=C1CCC1C2CC[C@]2(C)/C(=C/c3ccccn3)CCC12 (stereo partly drawn); test = cell growth or viability, MTT; setting = 72 h; IC50 = 32.2 µM
Compound = COc1ccc(CS(=O)(=O)c2ccc3ccccc3c2)cc1NCC(=O)O; test = cell growth or viability, MTS; setting = 48 h; IC50 = 0.112 µM
Compound = COc1cc(CN2CCN(c3ccccc3F)CC2)c2cc3[n+](cc2c1O)CCc1cc2c(cc1-3)OCO2; test = cell growth or viability, SRB; setting = 48 h; IC50 = 5.88 µg/mL
Compound = COc1ccc(CNC[C@@](O)(COCc2ccccc2)[C@@H]2CC[C@@H](C)C[C@H]2OCc2ccccc2)cc1; test = cell growth or viability, MTT; setting = 72 h; IC50 = 2.4 µM
Compound = COc1ccc(-c2nnc(-c3ccccn3)[nH]2)cc1OC.COc1ccc(-c2nnc(-c3ccccn3)[nH]2)cc1OC.[Cu+2].[O-][Cl+3]([O-])([O-])[O-].[O-][Cl+3]([O-])([O-])[O-]; test = cell growth or viability, MTT; setting = 24 h; IC50 = 94.7 µM
Compound = S=c1n(-c2ccccc2)c2c3ccccc3nc3[n+]2[n]1[Ir-3]12([S]3)([c]3ccc4ccccc4c3-c3sc4ccccc4[n+]31)[c]1ccc3ccccc3c1-c1sc3ccccc3[n+]12; test = cell viability, MTT; setting = irradiation 450 nm, 15.5 mW/cm^2, 15 min; IC50 = 0.005 ± 0.001 µM
Compound = C#CCN(CC(=O)O[C@H]1[C@H](C)O[C@@H](O[C@H]2[C@H](N(C)C)[C@@H](O)[C@H](O[C@H]3[C@@H](CC=O)C[C@@H](C)[C@@H](O[C@H]4CC[C@H](N(C)C)[C@@H](C)O4)/C=C/C=C/C[C@@H](C)OC(=O)C[C@@H](O)[C@@H]3OC)O[C@@H]2C)C[C@@]1(C)O)C(=O)c1ccc(C(F)(F)F)cc1; test = cell growth or viability, CCK-8; setting = 72 h; IC50 = 1.24 µM
Compound = N#Cc1c(-c2ccc(Cl)cc2)cc(-c2cccc3ccccc23)nc1Nc1ccc(Nc2nc(-c3cccc4ccccc34)cc(-c3ccc(Cl)cc3)c2C#N)cc1; test = cell growth or viability, MTT; setting = 72 h; IC50 = 1.27 µM
Compound = COc1cc(CN2CCN(c3ccc(F)cc3)CC2)c2cc3[n+](cc2c1O)CCc1cc2c(cc1-3)OCO2; test = cell growth or viability, SRB; setting = 48 h; IC50 = 4.42 µg/mL
Compound = COc1cccc(CNc2nc(NCc3ccccc3)c3ccccc3n2)c1; test = ODD-Luc degradation; setting = p97-independent substrate; IC50 = > 20 µM
Compound = O=C(CN1C(=O)NC(c2ccccc2)(c2ccccc2)C1=O)N/N=C/c1ccccc1; test = cell growth or viability, resazurin; setting = 24 h; IC50 = 170 µM
Compound = C[C@H](NC(=O)Cc1ccc(-c2ccc(OCCN3CCOCC3)cc2)cn1)c1ccccc1; test = cell growth or viability, CCK-8; setting = 48 h; IC50 = 0.45 µM
Compound = CCCCNC(=O)O[C@H]1[C@H](C)O[C@@H](O[C@H]2[C@H](N(C)C)[C@@H](O)[C@H](O[C@H]3[C@@H](CC=O)C[C@@H](C)[C@@H](O[C@H]4CC[C@H](N(C)C)[C@@H](C)O4)/C=C/C=C/C[C@@H](C)OC(=O)C[C@@H](O)[C@@H]3OC)O[C@@H]2C)C[C@@]1(C)O; test = cell growth or viability, CCK-8; setting = 72 h; IC50 = > 50 µM
Compound = CC(C)c1ccc(/C=C/C(=O)N[C@@H]2O[C@H](CO)[C@@H](O)[C@H](O)[C@H]2O)cc1; test = cell growth or viability; setting = 96 h; IC50 = > 250 µM
Compound = CC1=CC(c2cccc(C(F)(F)F)c2)=[O+][Ru-]([Cl])[O]1.Cc1c(C)c(C)c(C)c(C)c1C; test = cell growth or viability, MTT; IC50 = 6.1 µM
Compound = Oc1ccc2c(c1)OCc1c-2oc2cc3c(cc12)OCO3; test = cell growth or viability, MTT; setting = 72 h; IC50 = 22.5 µM
Compound = O=c1ccn([C@@H]2O[C@H](CSSc3ccccn3)[C@@H](O)[C@H](F)[C@H]2O)c(=O)[nH]1; test = cell growth or viability; IC50 = 8.8 µM
Compound = Cc1cc(/C=C/C#N)cc(C)c1Oc1cc(Nc2ccc(C#N)cn2)nc2cnccc12; setting = 48 h; IC50 = 66.9 ± 0.6 µM
Compound = CN1CCCNC(=O)CCC(=O)NCCCN(C)CCCNc2cccc3c2C(=O)c2cccc(c2C3=O)NCCC1; test = cell growth or viability, CCK-8; setting = 48 h; IC50 = > 20 µM
Compound = COC(=O)[C@@H](NC(=O)[C@@H](NC(=O)OC(C)(C)C)C(C)C)C(C)C; test = cell growth or viability, SRB; IC50 = 7 µM
Compound = Cc1ccc(/C=N/NC(=O)c2cc3cc(Nc4nccc(-c5cccnc5)n4)ccc3[nH]2)cc1; test = cell growth or viability, MTT; setting = 48 h; IC50 = 6.43 µM
Compound = C[C@@H]1CC[C@@H]([C@](O)(CNCc2cccc(F)c2)COCc2ccccc2)[C@H](OCc2ccccc2)C1; test = cell growth or viability, MTT; setting = 72 h; IC50 = 2.8 µM
Compound = CCCCCCCCCCCCCCCC(=O)O[C@H]1[C@H](C)O[C@@H](O[C@H]2[C@H](N(C)C)[C@@H](O)[C@H](O[C@H]3[C@@H](CC=O)C[C@@H](C)[C@@H](O[C@H]4CC[C@H](N(C)C)[C@@H](C)O4)/C=C/C=C/C[C@@H](C)OC(=O)C[C@@H](O)[C@@H]3OC)O[C@@H]2C)C[C@@]1(C)O; test = cell growth or viability, CCK-8; setting = 72 h; IC50 = 8.81 µM

Repeated from above:
Compound = COc1ccc(-c2nnc(-c3ccccn3)[nH]2)cc1OC.COc1ccc(-c2nnc(-c3ccccn3)[nH]2)cc1OC.[Cu+2].[O-][Cl+3]([O-])([O-])[O-].[O-][Cl+3]([O-])([O-])[O-]; test = cell growth or viability, MTT; setting = 24 h; IC50 = 94.7 µM
Compound = S=c1n(-c2ccccc2)c2c3ccccc3nc3[n+]2[n]1[Ir-3]12([S]3)([c]3ccc4ccccc4c3-c3sc4ccccc4[n+]31)[c]1ccc3ccccc3c1-c1sc3ccccc3[n+]12; test = cell viability, MTT; setting = irradiation 450 nm, 15.5 mW/cm^2, 15 min; IC50 = 0.005 ± 0.001 µM
Compound = C#CCN(CC(=O)O[C@H]1[C@H](C)O[C@@H](O[C@H]2[C@H](N(C)C)[C@@H](O)[C@H](O[C@H]3[C@@H](CC=O)C[C@@H](C)[C@@H](O[C@H]4CC[C@H](N(C)C)[C@@H](C)O4)/C=C/C=C/C[C@@H](C)OC(=O)C[C@@H](O)[C@@H]3OC)O[C@@H]2C)C[C@@]1(C)O)C(=O)c1ccc(C(F)(F)F)cc1; test = cell growth or viability, CCK-8; setting = 72 h; IC50 = 1.24 µM
Compound = N#Cc1c(-c2ccc(Cl)cc2)cc(-c2cccc3ccccc23)nc1Nc1ccc(Nc2nc(-c3cccc4ccccc34)cc(-c3ccc(Cl)cc3)c2C#N)cc1; test = cell growth or viability, MTT; setting = 72 h; IC50 = 1.27 µM
Compound = COc1cc(CN2CCN(c3ccc(F)cc3)CC2)c2cc3[n+](cc2c1O)CCc1cc2c(cc1-3)OCO2; test = cell growth or viability, SRB; setting = 48 h; IC50 = 4.42 µg/mL
Compound = COc1cccc(CNc2nc(NCc3ccccc3)c3ccccc3n2)c1; test = ODD-Luc degradation; setting = p97-independent substrate; IC50 = > 20 µM
